Measured values collected from several papers.
Parts stem from different laboratories: compare values within a part only. Changes are numbered by the printed parent chain.

Sample 1
Target: Interferon regulatory factor 3, full length, phosphomimetic (IRF3, Homo sapiens, UniProt Q14653, residues 1-427, S386D/S396D/S398D/S402D/T404D/S405D)
Method: protein-binding microarray
Form: double-stranded DNA, one strand shown
Sample: in vitro
Tested at: 2540 nM top
Setting: 60-bp whole probe
With: salmon DNA 0.4 mg/ml
Reference: random background probes
Reading: higher = stronger binding
Constant ends, left off below: GCCTAGCAC … GTCTTGATTCGCTTGACGCTGCTG
Residues (chain): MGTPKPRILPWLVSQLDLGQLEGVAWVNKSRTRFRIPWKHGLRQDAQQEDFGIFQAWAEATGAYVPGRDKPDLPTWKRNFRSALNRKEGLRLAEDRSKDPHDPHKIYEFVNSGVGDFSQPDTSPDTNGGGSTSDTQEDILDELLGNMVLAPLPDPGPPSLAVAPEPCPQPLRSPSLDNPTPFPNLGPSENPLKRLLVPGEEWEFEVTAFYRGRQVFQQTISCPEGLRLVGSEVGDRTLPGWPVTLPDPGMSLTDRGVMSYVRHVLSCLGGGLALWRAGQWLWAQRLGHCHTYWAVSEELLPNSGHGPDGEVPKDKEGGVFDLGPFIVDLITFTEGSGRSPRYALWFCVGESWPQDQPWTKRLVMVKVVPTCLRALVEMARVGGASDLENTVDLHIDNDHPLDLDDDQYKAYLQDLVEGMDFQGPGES
Sequence | fitted relative affinity
TTAGGTATCCCTCTCCTTTAGTGCTAG | 5.25 z-score
CCACACACCATTCTCGGGACGTGCTAG | 2.01 z-score
TTTGGTTTCGGTATCGGTTAGTGCTAG | 9.46 z-score
TCATTTTTCTCCTATTTAACTGTGCTA | 2.6 z-score
GAGGGACTGCTTCTCCTGACGTGCTAG | -0.74 z-score
GGAGCGCCAGGCCCCGGCAGGTGCTAG | -1.51 z-score
AGTGTCTCCATCAGAGGAGAGTGCTAG | 0.0488 z-score
TTATATTTCGGGACTGGATTAGTGCTA | 1.08 z-score
GACGGTTTCGACTATCGAGACGTGCTA | 3 z-score
TTAGGACTGGGGACTGGGGTAGTGCTA | -1.01 z-score
GACGATTTCAGTTCCGACACGTGCTAG | 2.98 z-score
GGCGGTATCGGGACTGGGGACGTGCTA | 1.81 z-score
TTAGGTGTCGGTCTCGGTTAGTGCTAG | 2.87 z-score
GACGGGATCGGACTGGGGACGTGCTAG | -0.263 z-score
GACGGACTTGGGTTTCGGGACGTGCTA | 0.968 z-score
TCAGTTGTCCAGGCTGGTACTGTGCTA | -0.135 z-score
TTAGGGATCGGACTGGGTTAGTGCTAG | -0.22 z-score
TTAGGTTTCCTCATCCTTTAGTGCTAG | 4.05 z-score
GACCATATCGGGTTTCGAGACGTGCTA | 1.87 z-score

Sample 2
Target: CCND1, cyclin fold, Cln2 fusion (human)
Method: yeast growth competition, sequencing
Sample: yeast
Setting: weak parent motif
Reference: not given
Reading: higher = stronger binding
Parent: RB1 docking peptide (human); PKPLKKLRFDIEG
Variant | normalised enrichment score
PKPLKKLRFTIEG [D10T] | -0.272
PKPLKKLRFDSEG [I11S] | 0.273
PKPLKKLRFGIEG [D10G] | 1.36
PPPLKKLRFDIEG [K2P] | 0.914
PKPLKKLRYDIEG [F9Y] | -0.485
PKPLKALRFDIEG [K6A] | 0.742
PKPLKKLRFDIES [G13S] | -0.0364
PKPLKKLRFLIEG [D10L] | 0.164
PKPLKKLRFDIEH [G13H] | 0.0454
PKPLKKLRFDIEL [G13L] | -0.287
PKPLKKLRFDVEG [I11V] | 0.0464
PKPLKKLRFDQEG [I11Q] | -0.0943
MKPLKKLRFDIEG [P1M] | -0.299
PKPLKKLIFDIEG [R8I] | 0.341
HKPLKKLRFDIEG [P1H] | 0.295
PKPLKKLTFDIEG [R8T] | 0.276
NKPLKKLRFDIEG [P1N] | -0.589
PKPLKKLRFHIEG [D10H] | 0.369
PKPGKKLRFDIEG [L4G] | 0.02
PKPLKGLRFDIEG [K6G] | 0.0701
PKPLKKLHFDIEG [R8H] | 0.257
PKPLKKLRFNIEG [D10N] | 0.241
PKPAKKLRFDIEG [L4A] | 0.0754

Sample 3
Target: Ras GTPase-activating protein-binding protein 1, C-terminal RGG region (G3BP1, Homo sapiens, UniProt Q13283)
Sequence of UniProt Q13283 (whole entry, looked up): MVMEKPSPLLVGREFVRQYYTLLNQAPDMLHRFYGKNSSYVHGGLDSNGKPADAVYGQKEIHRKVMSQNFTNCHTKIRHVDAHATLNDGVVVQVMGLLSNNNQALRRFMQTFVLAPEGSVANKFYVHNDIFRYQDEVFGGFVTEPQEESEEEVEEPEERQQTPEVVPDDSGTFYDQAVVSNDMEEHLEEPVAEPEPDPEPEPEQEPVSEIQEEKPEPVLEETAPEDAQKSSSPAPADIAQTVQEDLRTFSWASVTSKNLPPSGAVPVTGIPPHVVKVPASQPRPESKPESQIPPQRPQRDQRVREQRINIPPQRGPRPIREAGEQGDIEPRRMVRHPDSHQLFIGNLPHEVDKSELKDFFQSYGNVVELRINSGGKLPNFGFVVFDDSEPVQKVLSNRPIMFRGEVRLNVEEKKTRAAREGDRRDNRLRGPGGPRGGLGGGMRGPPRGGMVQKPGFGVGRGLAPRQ
Method: RNA Bind-n-Seq
Form: RNA
Sample: in vitro
Tested at: 1 µM
Setting: whole 134-nt RNA, ends assumed
With: 150 mM KCl
Reference: input library
Reading: higher = stronger binding
Sequence | log2 enrichment
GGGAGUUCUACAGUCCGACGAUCUGGCCCUGGUGGCAUGCGGGGAGGAAGAGGUGGCCUCAUGGAUGGUGGUGGUCCCGGUGGAAUGUUCAGAGGUGGCCGUGGUGGAGACAGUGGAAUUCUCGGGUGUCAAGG | 2.4
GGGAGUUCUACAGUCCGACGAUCUCAAGUCCUGUGCUACACAUCGUAUGUACCGAAUCGGAGGUUUGGUUUUUUUGGAAAGUAUUAUGUUACGCCGUUCGGAUCUGCACUUCCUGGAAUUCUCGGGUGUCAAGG | -1.15
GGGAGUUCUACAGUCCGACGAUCUGGGAGGUGGAUUUUGUUUAUUUUUUUAGCUCAUUACCAGGGGUGGGAAUUUUUUUUUAAUAUGUGUCAUGAAUAAAGUUGUUUUUGAAAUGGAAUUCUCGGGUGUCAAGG | 3.6
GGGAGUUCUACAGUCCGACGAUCGCAGGAAGUAAAAACAAAUGGAAAUGCUUCGGAUAGUGGCAGGGGUGGGGGUUGAUAAGGAAAGGGUGGGAUGGGAGUGGGUAAAGAGUUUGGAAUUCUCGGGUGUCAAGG | 1.06
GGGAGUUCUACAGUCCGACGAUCCAAGUCCUGUGCUACACAUCGUAUGUACCGAAUCGGGGAGGGGAAAGGGGAGGGGAAAGUAUUAUGUUACGCCGUUCGGAUCUGCACUUCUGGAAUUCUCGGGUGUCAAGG | 3.31
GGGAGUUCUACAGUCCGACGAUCUCAAGUCCUGUGCUACACAUCGUAUGUACCGAAUCGGGAAAGGGGAAAGGAAAGGAAAGUAUUAUGUUACGCCGUUCGGAUCUGCACUUCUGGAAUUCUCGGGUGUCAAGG | -1.46
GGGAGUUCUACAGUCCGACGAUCUCUGAGGUCACCAAGCCUCCUCCUUGCUUGGAGAACUCCUCGCCUCCCUCCAGGAUUCCGGAGCCUGAAUCCCCAGCGAAGCCAAACGUCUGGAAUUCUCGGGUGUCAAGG | -0.247
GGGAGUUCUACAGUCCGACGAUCGCAGGAAGUAAAAACAAAUGGAAAUGCUUCGGAUAGUGGCAGGGUUGGGGGUUGCUAAGGAAAGGGUGGGAUGGGAGUGGGUAAAGAGUUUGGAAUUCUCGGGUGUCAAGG | 1.52
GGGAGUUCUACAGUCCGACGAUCUAACUUUAGAGGAGGAUCUGAUGGAUAUGGUAGUGGACGUGGAUUUGGGGAUGGCUAUAAUGGGUAUGGAGGAGGACCUGGAGGUGGCAAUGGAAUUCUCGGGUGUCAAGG | -1.32

Further values, each from its own experiment
Substance | target | assay | system | setting | how to read | quantity | result
PhoQ, residues 284 288 289 292 302 303 TASMAF | PhoP, residues 12 14 15 18 19 NHTVL (Escherichia coli, UniProt P23836) | Sort-seq, refers to: YFP reporter | E. coli | PhoQ-PhoP variant library, with: 10 µM Mg2+ | reference: high Mg2+ state, higher = stronger signaling | fold induction | 4.38

Excerpt of the above (sample 2):
Variant | normalised enrichment score
PKPLKALRFDIEG [K6A] | 0.742
PKPLKKLRFDIES [G13S] | -0.0364
PKPLKKLRFLIEG [D10L] | 0.164
PKPLKKLRFDIEH [G13H] | 0.0454
PKPLKKLRFDIEL [G13L] | -0.287
